Measured values of several laboratories.
Lines come from different studies, so protocols differ. “And” joins repeats or separate records; there may be more than shown. Numbers after ± are the reported error. In brackets after ≈: the same amount, converted by molar mass.

NS(=O)(=O)c1ccc(CNc2ccnc(Nc3cccc(NC(=O)N4CCCC4)c3)n2)cc1 — number of kinases bound (403 human wild-type kinases; scanMAX; PoC below 10): 1
CC(=O)OC[C@H]1O[C@@H]([S-])[C@H](OC(C)=O)[C@@H](OC(C)=O)[C@@H]1OC(C)=O.CCP(CC)CC.[Au+] — EC50 (Toxoplasma gondii; bradyzoite growth; glutamine-induced bradyzoites, glucose-free medium): 0.38 µM
CNCc1ccc(-c2cc(-c3nc(-c4ccc(S(=O)(=O)C(C)C)cc4)cnc3N)on2)cc1 — inhibition (CaMKII (rat); inhibitor; 2 µM, added: ATP at Km): 1%
CCCCCCCC(=O)OC[C@H](COP(=O)(O)O[C@@H]1[C@H](O)[C@H](O)[C@@H](OP(=O)(O)O)[C@H](OP(=O)(O)O)[C@H]1O)OC(=O)CCCCCCC — maximal open probability (Kv7.2/Kv7.3(EEE) mutant channel; channel activation, activator, activation curve fit; model 1): 0.611
OC[C@H]1O[C@@H]2O[C@H]3[C@H](O)[C@@H](O)[C@@H](O[C@H]4[C@H](O)[C@@H](O)[C@@H](O[C@H]5[C@H](O)[C@@H](O)[C@@H](O[C@H]6[C@H](O)[C@@H](O)[C@@H](O[C@H]7[C@H](O)[C@@H](O)[C@@H](O[C@H]8[C@H](O)[C@@H](O)[C@@H](O[C@H]1[C@H](O)[C@H]2O)O[C@@H]8CO)O[C@@H]7CO)O[C@@H]6CO)O[C@@H]5CO)O[C@@H]4CO)O[C@@H]3CO — bioluminescence induction (LuxR; Escherichia coli sensor; 1 µM; higher = stronger induction): 781 ± 43 RLU
CCN1CCN(c2cc(N3CCN(CC)CC3)nc(NCCNc3ccnc4cc(Cl)ccc34)n2)CC1 — activation (Gal4-VP16; reporter gene, Gal4-VP16 control reporter; 10 µM; baseline: vehicle): 1.25 ± 0.24 fold
[Sr+2] — activity class (PP2C; enzyme activity; concentration not given): inactive
Cc1nn(CC(F)(F)F)cc1Nc1ncc(C2CC2)c(NCc2ccc(S(N)(=O)=O)cc2)n1 — selectivity score S10 (403 human wild-type kinases; scanMAX binding; 1 µM, hit below 10% of control; baseline: hits over kinases tested, direction not given): 0.005
[Mn+2] — activity class (PP2C; enzyme activity; concentration not given): active
C=CC(=O)N1[C@@H](c2ccc3c(c2)OCO3)c2[nH]c3ccccc3c2C[C@H]1C(=O)NC — inhibition (PQLC3 Cys135 human; cysteine IA-DTB labelling, covalent inhibitor, MS-ABPP; 22Rv1; 20 µM, 3 h): 15% and 6%
CNC(=O)c1cc(Oc2ccc(NC(=O)Nc3ccc(Cl)c(C(F)(F)F)c3)cc2)ccn1 — inhibition (CaMKII (rat); kinase activity, inhibitor; 10 µM): -6%
O=C(NCCCNc1ccnc(Nc2cccc(NC(=O)N3CCCC3)c2)n1)C1CCC1 — selectivity score S10 (403 human wild-type kinases; scanMAX binding; 1 µM, hit below 10% of control; baseline: hits over kinases tested, direction not given): 0.007
Oc1ccccc1-c1n[nH]cc1-c1ccnc2ccccc12 — log2 fold change (CMK1 (Candida albicans); kinase binding, MIB/MS competition; Candida albicans lysate; 1 µM; baseline: DMSO): 0.06
CC(Nc1nc(N2CCCC2)nc2ccccc12)c1ccccc1 (stereo not drawn) — cells with nuclear reporter (transportin-1/2; FUS nuclear import, high content imaging; HeLa Kyoto reporter; 10.01 µM, 2 h): 96.5%
COCCOCc1ccc(-c2cc3onc(-c4ccccc4)c3c(=O)n2C)cc1 — activation (Gal4-VP16; reporter gene, Gal4-VP16 control reporter; 3 µM; baseline: vehicle): 1.36 fold
O=C(O)C=Cc1ccc(O)cc1 — inhibition (gasdermin E (human); inhibitor; 100 µM, 2 h): 78.3%
Brc1cnc(Nc2cccc(CN3CCOCC3)c2)nc1NCCc1c[nH]cn1 — number of kinases bound (403 human wild-type kinases; scanMAX; PoC below 10): 94
CCCCCCCC(=O)c1c(O)cc(O)cc1CC(=O)OCC — activation (Gal4-VP16; reporter gene, Gal4-VP16 control reporter; 10 µM; baseline: vehicle): 0.95 fold
CC1(C)CCC2=C(O1)c1ccccc1C(=O)C2=O — EC50 (Toxoplasma gondii; parasite growth, luciferase reporter; HFF, tachyzoite; 72 h): 6.73 µM
O=C(NCCCNc1nc(Nc2cccc(NC(=O)N3CCCC3)c2)ncc1Br)C1CCC1 — number of kinases bound (403 human wild-type kinases; scanMAX; PoC below 10): 90
CCN(CC)CCNC(=O)c1c(C)[nH]c(/C=C2\C(=O)Nc3ccc(F)cc32)c1C — inhibition (CaMKII (rat); kinase activity, inhibitor; 0.3 µM): 12%
CCCCCCC(C(C)O)n1cnc2c(N)ncnc21 (stereo not drawn) — EC50 (cGMP antibody; acetylated cGMP EIA): > 1000 µM
NS(=O)(=O)c1ccc(CNc2nc(Nc3cccc(CN4CCOCC4)c3)ncc2Br)cc1 — selectivity score S10 (403 human wild-type kinases; scanMAX binding; 1 µM, hit below 10% of control; baseline: hits over kinases tested, direction not given): 0.047
c1coc(-c2n[nH]cc2-c2ccnc3ccccc23)c1 — log2 fold change (FUN31 (Candida albicans); kinase binding, MIB/MS competition; Candida albicans lysate; 1 µM; baseline: DMSO): 0.1
COc1cccc(CNC(=O)C#Cc2cn(Cc3ccc(C(=O)O)cc3)c(=O)[nH]c2=O)c1 — remaining MMP-8 activity (MMP-8; inhibitor, colorimetric; 20 µM): 108 ± 22%
CSc1cc(Oc2ccnc3[nH]c(=O)cnc23)ccc1NC(=O)Nc1cc(C(C)(C)C)nn1-c1ccccc1 — phospho-Src family Tyr416/total ratio (Src family kinases; reverse-phase protein array; patient-derived cell clone A; 1 µM, 4 h; baseline: DMSO): 0.24
Cc1nn(CC(F)(F)F)cc1Nc1ncc(Br)c(NCCc2cnc[nH]2)n1 — number of kinases bound (403 human wild-type kinases; scanMAX; PoC below 10): 28
COc1cc(/C=C/Cc2ccc(O)c(OC)c2)ccc1O — IC50 (STAT3; reporter gene, inhibitor; NCI-H460): 2.63 µg/mL (≈ 9.19 µM)
Cc1nn(CC(F)(F)F)cc1Nc1nccc(NCCc2cnc[nH]2)n1 — number of kinases bound (403 human wild-type kinases; scanMAX; PoC below 10): 0
O=C1COc2ccc(-c3cccc(Cl)c3)cc2N1Cc1noc(C2CCC2)n1 — selectivity ratio (UVRAG-Beclin1 interaction; NanoBRET; 100 µM; baseline: UVRAG-Beclin1 over ATG14L-Beclin1): 1.36

For quick reference, copied from above:
[Sr+2] — activity class (PP2C; enzyme activity; concentration not given): inactive
CSc1cc(Oc2ccnc3[nH]c(=O)cnc23)ccc1NC(=O)Nc1cc(C(C)(C)C)nn1-c1ccccc1 — phospho-Src family Tyr416/total ratio (Src family kinases; reverse-phase protein array; patient-derived cell clone A; 1 µM, 4 h; baseline: DMSO): 0.24
O=C(O)C=Cc1ccc(O)cc1 — inhibition (gasdermin E (human); inhibitor; 100 µM, 2 h): 78.3%
NS(=O)(=O)c1ccc(CNc2ccnc(Nc3cccc(NC(=O)N4CCCC4)c3)n2)cc1 — number of kinases bound (403 human wild-type kinases; scanMAX; PoC below 10): 1
